Experimental data collected from several papers.
Lines come from different studies, so protocols differ. Values joined by “and” are separate records of one study, mostly repeats; a detail may differ.
CA2: Carbonic anhydrase 2 (CA2, Homo sapiens, UniProt P00918)
TMEM97: Sigma intracellular receptor 2 (TMEM97, Homo sapiens, UniProt Q5BJF2)
Chain of UniProt Q5BJF2 (whole entry, looked up): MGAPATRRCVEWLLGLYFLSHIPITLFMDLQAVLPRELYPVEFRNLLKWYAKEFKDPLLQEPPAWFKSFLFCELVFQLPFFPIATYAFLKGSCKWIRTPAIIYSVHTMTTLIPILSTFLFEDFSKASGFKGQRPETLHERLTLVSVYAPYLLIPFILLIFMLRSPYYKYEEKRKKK
PFF0160c E182D: Dihydroorotate dehydrogenase (quinone), mitochondrial (PFF0160c, Plasmodium falciparum, UniProt Q08210, E182D)
PFF0160c: Dihydroorotate dehydrogenase (quinone), mitochondrial (PFF0160c, Plasmodium falciparum, UniProt Q08210)
Chain of UniProt P31645 (whole entry, looked up): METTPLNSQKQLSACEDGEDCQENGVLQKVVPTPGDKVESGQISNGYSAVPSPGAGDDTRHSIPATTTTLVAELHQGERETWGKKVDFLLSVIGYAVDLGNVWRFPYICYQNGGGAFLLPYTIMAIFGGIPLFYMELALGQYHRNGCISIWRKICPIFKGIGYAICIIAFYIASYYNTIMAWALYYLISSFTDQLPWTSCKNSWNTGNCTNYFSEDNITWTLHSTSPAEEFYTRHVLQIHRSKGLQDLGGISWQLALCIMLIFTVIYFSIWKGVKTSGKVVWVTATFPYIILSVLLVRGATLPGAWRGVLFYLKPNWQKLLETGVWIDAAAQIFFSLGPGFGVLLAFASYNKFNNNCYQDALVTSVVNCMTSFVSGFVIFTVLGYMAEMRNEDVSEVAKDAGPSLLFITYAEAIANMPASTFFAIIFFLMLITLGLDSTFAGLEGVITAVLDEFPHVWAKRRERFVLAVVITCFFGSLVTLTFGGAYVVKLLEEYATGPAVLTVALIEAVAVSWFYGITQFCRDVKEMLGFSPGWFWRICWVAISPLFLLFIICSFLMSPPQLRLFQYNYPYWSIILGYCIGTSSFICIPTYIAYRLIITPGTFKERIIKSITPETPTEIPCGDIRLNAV
Chain of UniProt Q14289 (whole entry, looked up): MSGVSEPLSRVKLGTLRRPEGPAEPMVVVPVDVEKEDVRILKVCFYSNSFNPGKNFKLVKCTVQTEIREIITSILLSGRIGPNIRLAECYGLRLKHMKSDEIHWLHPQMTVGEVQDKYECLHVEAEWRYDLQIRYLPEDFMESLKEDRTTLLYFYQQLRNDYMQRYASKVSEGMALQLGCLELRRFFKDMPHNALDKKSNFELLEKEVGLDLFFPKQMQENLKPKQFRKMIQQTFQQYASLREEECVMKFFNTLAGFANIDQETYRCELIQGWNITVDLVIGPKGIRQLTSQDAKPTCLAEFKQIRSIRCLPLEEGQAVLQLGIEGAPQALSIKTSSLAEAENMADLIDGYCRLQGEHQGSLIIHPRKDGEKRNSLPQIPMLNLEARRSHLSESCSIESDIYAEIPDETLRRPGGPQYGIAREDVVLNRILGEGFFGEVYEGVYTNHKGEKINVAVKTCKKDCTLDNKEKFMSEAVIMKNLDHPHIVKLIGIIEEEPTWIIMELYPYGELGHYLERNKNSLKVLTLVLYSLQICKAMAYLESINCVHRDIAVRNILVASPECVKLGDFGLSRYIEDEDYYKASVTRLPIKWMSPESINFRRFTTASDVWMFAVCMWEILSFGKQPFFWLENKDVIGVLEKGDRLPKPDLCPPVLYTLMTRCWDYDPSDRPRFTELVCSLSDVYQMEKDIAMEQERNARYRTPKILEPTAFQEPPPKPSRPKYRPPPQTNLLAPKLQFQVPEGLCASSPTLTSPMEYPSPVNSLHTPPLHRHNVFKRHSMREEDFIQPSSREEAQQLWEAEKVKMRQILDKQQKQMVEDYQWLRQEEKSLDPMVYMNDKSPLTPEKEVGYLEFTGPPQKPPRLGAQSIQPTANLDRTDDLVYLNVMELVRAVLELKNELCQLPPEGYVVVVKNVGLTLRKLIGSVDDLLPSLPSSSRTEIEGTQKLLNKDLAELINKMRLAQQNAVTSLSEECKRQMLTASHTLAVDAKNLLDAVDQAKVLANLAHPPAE
Chain of UniProt O43570 (whole entry, looked up): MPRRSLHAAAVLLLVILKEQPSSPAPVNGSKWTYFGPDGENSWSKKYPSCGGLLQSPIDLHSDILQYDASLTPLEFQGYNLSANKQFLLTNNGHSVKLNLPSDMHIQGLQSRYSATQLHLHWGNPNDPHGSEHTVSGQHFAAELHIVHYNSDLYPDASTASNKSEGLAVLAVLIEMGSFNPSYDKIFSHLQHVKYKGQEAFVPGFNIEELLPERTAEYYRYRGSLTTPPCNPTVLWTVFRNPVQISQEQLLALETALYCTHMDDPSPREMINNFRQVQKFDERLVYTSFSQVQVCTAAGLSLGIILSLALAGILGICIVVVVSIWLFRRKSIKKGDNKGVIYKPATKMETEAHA
Chain of UniProt P00915 (whole entry, looked up): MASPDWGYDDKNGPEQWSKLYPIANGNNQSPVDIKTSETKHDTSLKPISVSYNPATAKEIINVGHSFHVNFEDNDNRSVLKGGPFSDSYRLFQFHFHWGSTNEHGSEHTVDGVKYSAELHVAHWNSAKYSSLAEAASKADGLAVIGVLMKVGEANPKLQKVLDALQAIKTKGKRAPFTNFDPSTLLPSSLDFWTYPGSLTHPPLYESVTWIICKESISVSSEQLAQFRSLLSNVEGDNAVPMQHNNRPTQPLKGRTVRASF

Structure (SMILES)	target	test	setting	quantity	value
O=C(Nc1ccc2c(c1)C=CCP(=O)(O)O2)c1ccccc1	CA2	enzyme activity, inhibitor, stopped-flow		Ki	> 10 µM
CN(C)CCCN1c2ccccc2Sc2ccc(Cl)cc21	TMEM97	ligand displacement, radioligand		Ki	1.63 µM
CNCC(=O)c1ccccc1	Sodium-dependent serotonin transporter (SLC6A4, Homo sapiens, UniProt P31645)	calcium signal, agonist, fluorescence		EC50	> 60 µM and > 50 µM
CC(CN1c2ccccc2Sc2ccccc21)N(C)C (stereo not shown)	TMEM97	ligand displacement, radioligand		Ki	2.14 µM
CC(C)[C@H](NC(=O)[C@@H]1CCCN1C(=O)[C@@H](N)Cc1c[nH]cn1)C(=O)N[C@@H](Cc1ccccc1)C(=O)NCC(=O)N1CCC[C@H]1C(=O)N[C@@H](CCCNC(=N)N)C(=O)N[C@@H](CCCNC(=N)N)C(=O)N[C@@H](Cc1ccc(O)cc1)C(=O)N[C@@H](CCCCN)C(=O)N[C@@H](CCC(N)=O)C(=O)O	sapA (Haemophilus influenzae, UniProt Q4QL73)	binding		Kd	0.0059 µM
c1csc(-c2nnc3sc(Cc4ccc5c(c4)CCCC5)nn23)c1	PFF0160c E182D	enzyme activity, inhibitor, absorbance		IC50	0.749 µM
O=C(Nc1cccc(C(F)(F)F)c1)Nc1ccc2c(c1)C=CCP(=O)(O)O2	CA2	enzyme activity, inhibitor, stopped-flow		Ki	> 10 µM
O=C(Nc1cccc(CN2CCN(C(=O)c3cccc(Cl)c3)CC2)c1)c1ccco1	PFF0160c	enzyme activity, inhibitor, absorbance		IC50	4.06 µM
[2H]c1c([2H])c([C@]2([2H])CCCN2C(=O)C(C)(C)Oc2ccc3cn[nH]c3c2)c([2H])c([2H])c1C([2H])([2H])[2H]	Protein-tyrosine kinase 2-beta (PTK2B, Homo sapiens, UniProt Q14289)	binding, competition with immobilised ligand	1 µM	remaining binding	78%
O=C(Nc1ccc2c(c1)C=CCP(=O)(O)O2)c1ccccc1Br	Carbonic anhydrase 12 (CA12, Homo sapiens, UniProt O43570)	enzyme activity, inhibitor, stopped-flow		Ki	0.0089 µM
COCc1ccccc1C(=O)NCCOc1cc(C)cc(C)c1	PFF0160c E182D	enzyme activity, inhibitor, absorbance		IC50	0.0977 µM
O=C(Nc1ccc2c(c1)C=CCP(=O)(O)O2)c1ccc(Cl)cc1	Carbonic anhydrase 1 (CA1, Homo sapiens, UniProt P00915)	enzyme activity, inhibitor, stopped-flow		Ki	> 10 µM
Cc1cc(Nc2ccc(C)c(C)c2)n2nc(C)nc2n1	PFF0160c	enzyme activity, inhibitor, absorbance		IC50	> 10 µM

Repeated from above:
Structure (SMILES)	target	test	setting	quantity	value
O=C(Nc1cccc(CN2CCN(C(=O)c3cccc(Cl)c3)CC2)c1)c1ccco1	PFF0160c	enzyme activity, inhibitor, absorbance		IC50	4.06 µM
